Results collected from several papers.
Every numbered part comes from another study and shows a few of its results, in no order.

Study 1
Target: Sal-like protein 4, full length isoform A (SALL4, Homo sapiens, UniProt Q9UJQ4, residues 1-1053)
Sequence of UniProt Q9UJQ4 (whole entry, looked up): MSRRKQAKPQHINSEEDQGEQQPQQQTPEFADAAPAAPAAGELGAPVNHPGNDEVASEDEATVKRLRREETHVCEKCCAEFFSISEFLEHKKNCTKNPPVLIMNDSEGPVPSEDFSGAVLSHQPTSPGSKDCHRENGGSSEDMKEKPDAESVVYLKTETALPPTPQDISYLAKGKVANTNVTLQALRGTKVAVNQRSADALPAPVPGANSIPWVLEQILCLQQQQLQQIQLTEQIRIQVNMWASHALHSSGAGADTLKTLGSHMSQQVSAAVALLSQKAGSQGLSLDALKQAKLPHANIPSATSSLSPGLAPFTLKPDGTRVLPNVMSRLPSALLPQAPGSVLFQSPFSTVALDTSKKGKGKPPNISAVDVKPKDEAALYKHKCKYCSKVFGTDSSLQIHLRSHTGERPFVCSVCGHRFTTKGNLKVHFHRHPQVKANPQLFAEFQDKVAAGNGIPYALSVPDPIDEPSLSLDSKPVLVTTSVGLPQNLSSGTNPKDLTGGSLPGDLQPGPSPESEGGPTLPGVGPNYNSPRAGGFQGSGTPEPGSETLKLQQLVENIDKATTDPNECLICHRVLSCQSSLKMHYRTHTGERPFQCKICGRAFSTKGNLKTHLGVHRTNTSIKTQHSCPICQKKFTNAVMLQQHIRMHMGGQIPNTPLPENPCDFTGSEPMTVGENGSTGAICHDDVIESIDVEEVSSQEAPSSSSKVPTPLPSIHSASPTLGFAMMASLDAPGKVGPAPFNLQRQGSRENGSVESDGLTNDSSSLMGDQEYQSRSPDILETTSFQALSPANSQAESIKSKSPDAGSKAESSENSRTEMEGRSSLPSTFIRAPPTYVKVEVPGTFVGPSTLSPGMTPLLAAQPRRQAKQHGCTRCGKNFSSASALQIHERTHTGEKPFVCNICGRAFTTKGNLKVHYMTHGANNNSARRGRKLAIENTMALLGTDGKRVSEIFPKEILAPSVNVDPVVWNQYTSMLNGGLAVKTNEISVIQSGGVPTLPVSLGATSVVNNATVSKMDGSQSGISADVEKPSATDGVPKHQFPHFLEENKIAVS
Method: universal PBM
Form: double-stranded DNA, one strand shown
Matrix: in vitro
Tested at: 600 nM
Notes: 8-mer, flanks averaged, mean of replicates
Reading: higher = stronger binding
| Sequence | E-score |
| --- | --- |
| GCCGTGCA | -0.154 |
| CCAAAAGA | 0.215 |
| TCCGGCGA | -0.168 |
| ATAGTAAC | 0.237 |
| ACAACTTG | 0.0347 |
| AATGCGGT | -0.169 |
| TCCGTCGA | -0.0203 |
| CAGGATGC | -0.237 |
| AAAGATAA | 0.354 |
| GACTCGTA | -0.0374 |
| CCGTGCAA | -0.153 |
| GATGAGAC | 0.03 |
| AAGTGATC | 0.0977 |
| AATTGAGT | 0.162 |
| GGTAATCA | 0.0598 |
| AGGTATTA | 0.307 |
| AATGTTCT | 0.139 |
| GATTAGTA | 0.256 |
| CTATCTCC | -0.0411 |
| ACATTAAG | 0.283 |
| AAATTTAG | 0.273 |
| CACTGACA | 0.0595 |
| GCCTTGCC | -0.228 |
| CCGACGAA | -0.00604 |
| CCTTTCAC | 0.00111 |

Study 2
Target: RNA binding protein fox-1 homolog 2, RRM domain, GST-SBP tag (RBFOX2, Homo sapiens, UniProt O43251-10, residues 100-194)
Method: RNA Bind-n-Seq
Form: RNA
Matrix: in vitro
Tested at: 365 nM
Notes: natural RNA segment, single round, ends assumed
Reference: no-protein control
Reading: higher = stronger binding
Shared flanks, not repeated: GGGAGUUCUACAGUCCGACGAUC … UGGAAUUCUCGGGUGCCAA
Target sequence (chain): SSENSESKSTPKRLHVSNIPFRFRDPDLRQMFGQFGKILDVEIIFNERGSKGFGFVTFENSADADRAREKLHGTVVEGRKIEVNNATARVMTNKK
| Sequence | RBNS enrichment (R) |
| --- | --- |
| GGAUGGCGGUUUGGAUUUCUUUGCUCAGAGCCAAUGCAGUUGACACAGUGGCUGCUGGGUUACUGUCCCAUGAGACUGUACUGGACGGGUGCAGCCAGAGUGGCGCAGUG | 0.458 |
| UCUACGUGUAUAGUUCUCCAUGCUCACUAACUCUCCUUCUCUGGGAAGCAGAUGUACAUACUACAUACAUGUCACAUACUACAUACAUGUCAUGUACUACACACAUGUCA | 0.353 |
| AGAGGGUUGGUAUAAAAAUAAUUUUAAAAAAGCCUUCCUACACGUUAGAUUUGCCGUACCAAUCUCUGAAUGCCCCAUAAUUAUUAUUUCCAGUGUUUGGGAUGACCAGG | 0.402 |
| GGCCUGGACCCCACACGUUCAUAGUCUGUCCAGACACUGGGUGGCGGUCCUAAUGCACAGUGACCAAUAUCCACAUAACCUCAUUUGCCUUCCAGAUGUUCAGAUAGUCA | 0.812 |
| AGACGCUGGCCUUCAGACCUGAUCAGACUCCCAGGGGCAGCCACCACAUGUAUGACAGAGAACAGAGGAUGCCUGUUUUUGCCCCAAAGCUGGAAAUUCAUCACAACCUG | 0.579 |
| CAGAACUGCCAAUUUCAGGACUGAGAUGUGUUUUUAAAAAACAAAUCCUUAUAAACUCCACUUUGUACUUUAGAUUUUAAAACUGGGGAAAAAUGUGAUAUUCUUUGGAC | 0.531 |
| CGUGAUCAGAUCCUGAAUCCCAACCCCCAAGACCUGAGGCCUCUGUCAUCUCCCCAUCCCCAGGCUAACAACCACAGCCCCUCACUUUUAGAGAUUAGGAGACCCUUUGU | 0.417 |
| GACCUGAGGAAUCCCAGGCCUGUGAGAAAAGCAAAAAUUCACAUUGCAGCACAUGAUGCCAGAAAUAGCACUGAAUCAAGAAAAUAGCCAUUGCGGAGCUGCCCUCUUGA | 0.749 |
| UACAUACUGUUCUAAUUUUGUAUUUUUUAAUUUUUGAAUUUGACAUUGAGUUUAAUUCAGCAACAACAAAAAAUACAUAUAAAACUAGAAAGGGACUUUUUUUCCUUUCU | 0.519 |
| AACUGUAUAGUGUACAUGGUAAUGAUUUAUUGCUAUGCCCCAGAUCCUUAAUGUAGUUCUCAUCCUCCGCAUGCCCUCAGCCACAAGCGGGUGACUGACUGUUCCCUGAU | 4.28 |
| CAAUGCAAAUGUCUAAUUGUCCCCCAGUGGGCAUAGUCAGUGUCGUUUAUAUUGUAGCAGUUACAGCUCUGUAGUUUAUGAUGCAAAUCUGCCAAGAGAGAUGUAUGUGU | 0.321 |
| CACUGUGAACGGAGGGAAGUGCGUGGGGUCAGGUGACCUGACUCCAACGAUUUGGUCAAGGAGGUUAUGAUUCUUCAUAGUCACUCUCCUCAUGAAUCCUUCCCAUUUAU | 0.271 |

Study 3
Target: Ras GTPase-activating protein-binding protein 1, full length (G3BP1, Homo sapiens, UniProt Q13283)
Sequence of UniProt Q13283 (whole entry, looked up): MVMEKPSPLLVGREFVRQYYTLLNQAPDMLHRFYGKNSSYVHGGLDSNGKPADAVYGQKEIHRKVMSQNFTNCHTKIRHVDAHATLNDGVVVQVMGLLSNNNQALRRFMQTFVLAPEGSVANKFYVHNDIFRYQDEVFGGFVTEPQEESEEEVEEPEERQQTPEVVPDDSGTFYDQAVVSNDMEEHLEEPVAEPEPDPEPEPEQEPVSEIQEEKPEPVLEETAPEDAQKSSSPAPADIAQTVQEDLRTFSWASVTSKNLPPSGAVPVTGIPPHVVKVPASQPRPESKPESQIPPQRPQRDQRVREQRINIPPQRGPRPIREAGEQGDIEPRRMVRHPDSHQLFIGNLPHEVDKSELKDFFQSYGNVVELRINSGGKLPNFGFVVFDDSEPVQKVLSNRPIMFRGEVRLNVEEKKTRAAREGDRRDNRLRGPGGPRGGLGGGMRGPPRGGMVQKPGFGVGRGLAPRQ
Method: RNA Bind-n-Seq
Form: RNA
Matrix: in vitro
Tested at: 200 nM
Notes: whole 134-nt RNA, ends assumed
With: 150 mM KCl
Reference: input library
Reading: higher = stronger binding
Shared flanks, not repeated: GGGAGUUCUACAGUCCGACGAUC … UGGAAUUCUCGGGUGUCAAGG
| Sequence | log2 enrichment |
| --- | --- |
| UGGCCCUGGUGGGAUGCGGGGAGGAAGAGGUGGCCUCAUGGAUCGUGGUGGUCCCGGUGGAAUGUUCAGAGGUGGCCGUGGUGGAGACAG | 0.554 |
| CCUGUGCUACACAUCGUAUGUACCGAAUCGGUUUUUUUGGUUUUUUUGGGGUUUUUUUGGAAAGUAUUAUGUUACGCCGUUCGGAUCUGC | -0.991 |
| UGGUGACCUACCUGGACGUCCGGAGCUGCCUUGGACACCUAGGCUACCUGGGCUACCCCACCCUCUGUGAGCAGGACCAGGCCCAUGCCA | -0.212 |
| CACAGACAACACGCACCCACACAGACACAGAGGGAAGGGGUGGGGAUGGGGACAGGGUGCACAGCAGGGCGGGGUAGGACCCCAGCCCCU | 1.75 |
| AGUCCUGUGCUACACAUCGUAUGUACCGAAUCGGGCCCCCGGGCCCCCGGCCCCCGGAAAGUAUUAUGUUACGCCGUUCGGAUCUGCACU | -0.502 |
| CUGUGCUACACAUCGUAUGUACCGAAUCGGGGAAAGGGGUUUUUUUGGGGAAAAAAAGGGGAAAGUAUUAUGUUACGCCGUUCGGAUCUG | -0.271 |
| AAGUCCUGUGCUACACAUCGUAUGUACCGAAUCGGGGUUUGGGGUUUGGGUUUGGGGAAAGUAUUAUGUUACGCCGUUCGGAUCUGCACU | 0.184 |
| ACCAUGCAGGUGGGCAUCUUUGGGAAGUGGGGCAAGGGGGGGAUAGGGAGGGGGGUAACACUUUGGGAACAGGUGCUCCCAGGUCGUUUC | 1.34 |
| AGUCCUGUGCUACACAUCGUAUGUACCGAAUCGGGAAAGGGUUUUUGGGAAAAAGGGAAAGUAUUAUGUUACGCCGUUCGGAUCUGCACU | -0.403 |
| UGGGAGGUGGAUUUUGUUUAUUUUUUUAGCUCAUUUCCAAGGGUGGGAAUUUUUUUUUAAUAUGUGUCAUGAAUAAAGUUGUUUUUGAAA | -0.187 |
| ACCAUGCAGGUGGGCAUCUCUGGGAAGUGGGGCAAGGGGGGGAUAGGGAGGGGGGUAACACUUUGGGAACAGGUGGUCCCAGGUCGUUUC | 1.27 |
| UUCCUCAAGUCCUGUGCUACACAUCGUAUGUACCGAAUCGGCGGCGGCGGGAAAGUAUUAUGUUACGCCGUUCGGAUCUGCACUUCCAGC | -0.124 |
| CUCAAGUCCUGUGCUACACAUCGUAUGUACCGAAUCGGGAAGGAAGGGAAGGGGAAAGUAUUAUGUUACGCCGUUCGGAUCUGCACUUCC | 0.328 |
| UCAAGUCCUGUGCUACACAUCGUAUGUACCGAAUCGGGGCCCGGCCCGGCCCGGGAAAGUAUUAUGUUACGCCGUUCGGAUCUGCACUUC | -0.823 |

Study 4
Target: Interferon regulatory factor 5, full length, phosphomimetic (IRF5, Homo sapiens, UniProt Q13568-2, residues 1-514, K96S/S451D/S453D/S456D/S462D)
Method: protein-binding microarray
Form: double-stranded DNA, one strand shown
Matrix: in vitro
Tested at: 250 nM
Notes: 60-bp whole probe
With: salmon DNA 0.4 mg/ml
Reference: random background probes
Reading: higher = stronger binding
Shared flanks, not repeated: GCCTAGCAC … GTCTTGATTCGCTTGACGCTGCTG
| Sequence | log fluorescence [z-score] |
| --- | --- |
| TCACTTGTCCCTCCGGGACTGTGCTAG | -0.0978 |
| TTAGATATCAGACTGAATTAGTGCTAG | 0.492 |
| GACGGACTGGACTATCGGGATGTGCTA | 1.02 |
| CATGAACTGTTTCTTGAAAAGTGCTAG | 0.569 |
| TGATTTTGGTCTTTCTGTTTGTGCTAG | 3.88 |
| TTCGATCTCAGTTTCGATTAGTGCTAG | 9.35 |
| TTAGGTATCCTACTTCTTTAGTGCTAG | 0.215 |
| TTAGATTTCGGGACTGGAGTAGTGCTA | 2.57 |
| TACGAACTGAGTCTCGAGACGTGCTAG | -0.124 |
| TTAGGACTGGGTTTCGGTTGGTGCTAG | 7.58 |
| AGAGTTCCAGACAGCTCCCTGTGCTAG | -0.402 |
| TTAGATTTCCGGACTGGATTAGTGCTA | 0.155 |
| TTAGGTATCGACTTTCGCTTAGTGCTA | 7.89 |
| ATCCATTTTGGTTTTCATTAGTGCTAG | 2.1 |
| AAGTGTGCCCATCTCTGCTCGTGCTAG | -0.359 |
| GACGAACTGAGTATCGAGGCGTGCTAG | 1.09 |

Some of these lines once more (study 1):
| Sequence | E-score |
| --- | --- |
| ACAACTTG | 0.0347 |
| TCCGTCGA | -0.0203 |
| GATTAGTA | 0.256 |
| AGGTATTA | 0.307 |
